# Experimental data from different studies.
# Parts stem from different laboratories: compare values within a part only.

# Series 1 — target: Sox, HMG box (Pigoraptor chileana); technique: Spec-seq; form: double-stranded DNA, one strand shown; sample: in vitro; tested at: not given; setting: whole probe, mean of replicates; relative to: not given; direction: lower = stronger binding; shared flanks, not repeated: GAGTCGTCTCGTCAGCACC … CCGTAGAGCACTCAGGTC
# Residues (chain): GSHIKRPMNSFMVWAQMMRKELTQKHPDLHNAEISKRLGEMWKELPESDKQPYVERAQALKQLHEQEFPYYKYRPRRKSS
Strand,relative binding energy
ATCCTA,0.108 ln ratio
CGGGTT,1.25 ln ratio
ATCGTA,0.457 ln ratio
ATTTAG,0.115 ln ratio
ATGTGC,0.772 ln ratio
ATAAAT,-0.21 ln ratio

# Series 2 — technique: universal PBM; form: double-stranded DNA, one strand shown; sample: in vitro; tested at: 600 nM; direction: higher = stronger binding
# Target: Sal-like protein 4, full length isoform A (SALL4, Homo sapiens, UniProt Q9UJQ4, residues 1-1053)
# Sequence of UniProt Q9UJQ4 (whole entry, looked up): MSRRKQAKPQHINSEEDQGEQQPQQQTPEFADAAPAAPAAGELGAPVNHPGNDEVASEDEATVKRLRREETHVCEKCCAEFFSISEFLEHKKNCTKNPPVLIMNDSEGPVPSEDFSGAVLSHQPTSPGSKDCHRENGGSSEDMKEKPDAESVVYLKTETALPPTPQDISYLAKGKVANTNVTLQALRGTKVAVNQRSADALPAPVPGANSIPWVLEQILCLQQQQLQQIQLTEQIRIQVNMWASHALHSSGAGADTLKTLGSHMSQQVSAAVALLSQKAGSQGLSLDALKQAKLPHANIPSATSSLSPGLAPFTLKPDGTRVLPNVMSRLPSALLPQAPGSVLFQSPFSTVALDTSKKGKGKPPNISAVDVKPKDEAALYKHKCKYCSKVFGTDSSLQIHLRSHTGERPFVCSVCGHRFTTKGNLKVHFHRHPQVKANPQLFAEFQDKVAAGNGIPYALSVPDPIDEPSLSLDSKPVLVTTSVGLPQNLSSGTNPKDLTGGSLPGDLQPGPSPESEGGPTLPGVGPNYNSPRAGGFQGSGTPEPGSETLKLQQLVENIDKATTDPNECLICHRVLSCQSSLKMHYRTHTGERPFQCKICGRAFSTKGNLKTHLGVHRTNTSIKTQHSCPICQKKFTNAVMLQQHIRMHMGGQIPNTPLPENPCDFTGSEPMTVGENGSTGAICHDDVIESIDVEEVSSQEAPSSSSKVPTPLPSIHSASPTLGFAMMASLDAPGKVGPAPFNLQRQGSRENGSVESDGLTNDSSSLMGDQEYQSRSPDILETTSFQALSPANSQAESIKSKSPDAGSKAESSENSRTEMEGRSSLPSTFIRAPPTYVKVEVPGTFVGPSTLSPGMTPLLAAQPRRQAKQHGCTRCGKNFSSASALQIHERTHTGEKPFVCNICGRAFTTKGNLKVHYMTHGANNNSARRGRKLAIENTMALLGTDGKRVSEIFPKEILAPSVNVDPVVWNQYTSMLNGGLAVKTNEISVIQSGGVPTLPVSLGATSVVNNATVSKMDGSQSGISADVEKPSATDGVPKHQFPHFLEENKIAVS
# Setting: 8-mer, flanks averaged, mean of replicates
Strand,E-score
AAGAGAAT,0.107
TAATACGA,0.278
AGTGCGTA,-0.0559
AACTATTC,0.15
ATTTGTCA,0.211
CGGTTGCC,-0.294
CCCACGCG,-0.318

# Series 3 — technique: aptamer microarray, sandwich; form: DNA with 2'F-ANA; sample: in vitro; tested at: 200 nM; with: Cy3 exosite-II aptamer, 400 nM; direction: higher = stronger binding; strand: GGTTGGTGTGGTTGG
# Target: Prothrombin, mature alpha-thrombin (F2, Homo sapiens, UniProt P00734)
# Setting: whole 15-mer aptamer, many near background
Modification,mean fluorescence intensity
2'F-ANA at 2 4 5 6 7 8 9 10 11 14 15,47 a.u.
2'F-ANA at 1 2 3 4 6 7 10 11,67.8 a.u.
2'F-ANA at 3 4 5 6 8 12 13 14,89.1 a.u.
2'F-ANA at 6 9 11 12 15,577 a.u.
2'F-ANA at 3 4 8 11 12 15,885 a.u.
2'F-ANA at 1 2 3 7 8 11 14,84.6 a.u.

# Further values, each from its own experiment
Molecule,target,test,test system,setting,how to read,endpoint,value
"PhoQ, residues 284 288 289 292 302 303 SLANIV","PhoP, residues 12 14 15 18 19 NQCAL (Escherichia coli, UniProt P23836)","Sort-seq, measured: YFP reporter",E. coli,"PhoQ-PhoP variant library, with: 10 µM Mg2+","relative to: high Mg2+ state, higher = stronger signaling",fold induction,11.7

# Some of these lines once more (series 1):
Strand,relative binding energy
ATGTGC,0.772 ln ratio
